# Assay results pooled from the literature.
# ± gives the spread as reported.
# ADCYAP1R1: Pituitary adenylate cyclase-activating polypeptide type I receptor (ADCYAP1R1, Homo sapiens, UniProt P41586)
# Chain of UniProt P41586 (whole entry, looked up): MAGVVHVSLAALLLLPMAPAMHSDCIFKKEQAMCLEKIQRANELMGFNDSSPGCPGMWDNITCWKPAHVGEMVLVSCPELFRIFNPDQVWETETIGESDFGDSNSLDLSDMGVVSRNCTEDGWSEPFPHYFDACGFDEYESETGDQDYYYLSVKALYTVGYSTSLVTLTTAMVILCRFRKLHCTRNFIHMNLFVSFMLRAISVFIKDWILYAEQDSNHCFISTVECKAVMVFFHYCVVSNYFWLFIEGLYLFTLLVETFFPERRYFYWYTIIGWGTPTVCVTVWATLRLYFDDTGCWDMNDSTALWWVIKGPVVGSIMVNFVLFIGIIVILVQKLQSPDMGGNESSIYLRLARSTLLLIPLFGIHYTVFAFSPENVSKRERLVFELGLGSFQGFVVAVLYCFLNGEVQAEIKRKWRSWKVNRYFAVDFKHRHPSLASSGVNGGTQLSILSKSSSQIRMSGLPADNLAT
# MCA2: Metacaspase-2 (MCA2, Trypanosoma brucei brucei, UniProt Q585F3)
# Chain of UniProt Q585F3 (whole entry, looked up): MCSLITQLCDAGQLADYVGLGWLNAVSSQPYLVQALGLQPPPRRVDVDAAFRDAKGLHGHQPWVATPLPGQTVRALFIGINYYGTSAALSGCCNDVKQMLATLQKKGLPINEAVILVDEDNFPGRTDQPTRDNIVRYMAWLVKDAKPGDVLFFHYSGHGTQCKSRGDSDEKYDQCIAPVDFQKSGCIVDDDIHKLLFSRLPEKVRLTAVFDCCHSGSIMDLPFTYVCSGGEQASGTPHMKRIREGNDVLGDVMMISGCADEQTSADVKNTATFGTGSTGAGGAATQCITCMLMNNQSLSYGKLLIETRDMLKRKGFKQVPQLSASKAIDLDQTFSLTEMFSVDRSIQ
# blaNDM-1: Metallo-beta-lactamase type 2 (blaNDM-1, Klebsiella pneumoniae, UniProt C7C422)
# Chain of UniProt C7C422 (whole entry, looked up): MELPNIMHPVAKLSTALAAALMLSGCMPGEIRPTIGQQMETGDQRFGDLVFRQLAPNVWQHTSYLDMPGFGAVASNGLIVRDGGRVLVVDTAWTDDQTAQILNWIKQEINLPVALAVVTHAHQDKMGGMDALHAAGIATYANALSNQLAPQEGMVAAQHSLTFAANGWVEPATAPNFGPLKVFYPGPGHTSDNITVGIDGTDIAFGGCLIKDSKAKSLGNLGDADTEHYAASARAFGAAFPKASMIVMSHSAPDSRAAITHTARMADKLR
# Chain of UniProt P41143 (whole entry, unmodified, looked up): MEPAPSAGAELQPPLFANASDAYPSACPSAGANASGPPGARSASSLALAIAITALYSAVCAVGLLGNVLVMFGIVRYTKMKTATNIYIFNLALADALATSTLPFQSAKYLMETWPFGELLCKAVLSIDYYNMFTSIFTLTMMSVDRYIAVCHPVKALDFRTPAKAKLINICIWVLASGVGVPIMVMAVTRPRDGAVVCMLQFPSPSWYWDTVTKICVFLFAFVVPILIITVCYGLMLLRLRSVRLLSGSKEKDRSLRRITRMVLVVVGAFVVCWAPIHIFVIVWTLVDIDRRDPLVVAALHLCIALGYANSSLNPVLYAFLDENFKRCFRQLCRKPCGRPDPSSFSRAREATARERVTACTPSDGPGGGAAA
# Chain of UniProt P30989 (whole entry, looked up): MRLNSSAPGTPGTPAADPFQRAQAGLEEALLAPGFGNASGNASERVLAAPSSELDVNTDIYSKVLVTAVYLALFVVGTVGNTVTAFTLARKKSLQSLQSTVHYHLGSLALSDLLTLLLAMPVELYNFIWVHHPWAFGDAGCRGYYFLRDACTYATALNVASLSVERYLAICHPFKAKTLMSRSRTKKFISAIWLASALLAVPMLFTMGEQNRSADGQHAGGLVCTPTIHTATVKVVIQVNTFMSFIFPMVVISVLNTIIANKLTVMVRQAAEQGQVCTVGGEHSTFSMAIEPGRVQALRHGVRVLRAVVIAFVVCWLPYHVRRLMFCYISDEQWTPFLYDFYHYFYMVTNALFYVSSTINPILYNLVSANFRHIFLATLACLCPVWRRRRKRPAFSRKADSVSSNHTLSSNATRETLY
# Chain of UniProt P35368 (whole entry, looked up): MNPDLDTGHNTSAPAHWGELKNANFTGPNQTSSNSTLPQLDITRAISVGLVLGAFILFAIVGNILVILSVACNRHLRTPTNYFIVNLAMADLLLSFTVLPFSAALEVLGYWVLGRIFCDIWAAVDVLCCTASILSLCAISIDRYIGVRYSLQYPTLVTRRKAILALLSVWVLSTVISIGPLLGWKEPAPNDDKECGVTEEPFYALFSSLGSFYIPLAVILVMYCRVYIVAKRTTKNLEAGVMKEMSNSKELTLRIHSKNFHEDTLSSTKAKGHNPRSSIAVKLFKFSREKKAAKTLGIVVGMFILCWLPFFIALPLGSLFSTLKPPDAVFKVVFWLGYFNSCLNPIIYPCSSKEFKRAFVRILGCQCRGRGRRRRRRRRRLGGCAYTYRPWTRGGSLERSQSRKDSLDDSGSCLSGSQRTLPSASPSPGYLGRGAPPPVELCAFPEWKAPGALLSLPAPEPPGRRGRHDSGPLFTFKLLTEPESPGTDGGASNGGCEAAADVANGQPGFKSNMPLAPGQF
# Chain of UniProt Q16549 (whole entry, looked up): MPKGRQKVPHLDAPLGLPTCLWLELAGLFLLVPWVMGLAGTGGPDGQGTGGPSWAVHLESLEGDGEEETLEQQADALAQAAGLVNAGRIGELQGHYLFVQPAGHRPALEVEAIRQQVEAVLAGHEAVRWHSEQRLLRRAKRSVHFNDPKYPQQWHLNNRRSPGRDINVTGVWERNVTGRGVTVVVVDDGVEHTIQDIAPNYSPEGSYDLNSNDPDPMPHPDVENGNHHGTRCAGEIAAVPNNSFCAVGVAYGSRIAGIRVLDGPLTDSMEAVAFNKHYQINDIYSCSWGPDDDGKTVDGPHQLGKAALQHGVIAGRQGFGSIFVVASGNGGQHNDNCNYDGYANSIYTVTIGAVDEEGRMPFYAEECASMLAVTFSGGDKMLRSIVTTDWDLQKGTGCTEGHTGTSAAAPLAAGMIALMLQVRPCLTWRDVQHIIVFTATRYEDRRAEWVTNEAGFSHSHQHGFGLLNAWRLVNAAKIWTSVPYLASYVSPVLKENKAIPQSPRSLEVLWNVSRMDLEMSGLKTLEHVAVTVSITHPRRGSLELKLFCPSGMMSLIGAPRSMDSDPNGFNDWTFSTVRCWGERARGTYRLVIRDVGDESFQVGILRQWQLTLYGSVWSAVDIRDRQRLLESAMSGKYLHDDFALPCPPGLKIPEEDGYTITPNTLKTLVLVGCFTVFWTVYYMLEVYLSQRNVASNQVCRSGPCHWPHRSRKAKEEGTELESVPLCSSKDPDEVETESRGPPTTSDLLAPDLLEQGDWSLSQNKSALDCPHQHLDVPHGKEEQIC
# Chain of UniProt P33535 (whole entry, looked up): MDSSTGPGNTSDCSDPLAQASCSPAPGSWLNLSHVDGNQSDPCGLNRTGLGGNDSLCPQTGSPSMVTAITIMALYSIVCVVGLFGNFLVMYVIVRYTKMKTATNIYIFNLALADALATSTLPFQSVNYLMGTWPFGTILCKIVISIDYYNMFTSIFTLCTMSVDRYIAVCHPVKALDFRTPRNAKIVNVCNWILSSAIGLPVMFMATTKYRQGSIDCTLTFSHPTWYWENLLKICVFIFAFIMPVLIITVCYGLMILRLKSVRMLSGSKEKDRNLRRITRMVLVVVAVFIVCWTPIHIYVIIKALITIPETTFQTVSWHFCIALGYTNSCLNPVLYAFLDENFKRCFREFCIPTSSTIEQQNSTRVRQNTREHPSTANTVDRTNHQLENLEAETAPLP
Compound,tested on,test,system,conditions,scale,measurement,value
O=C1NC2(CC2)COc2ncc(F)cc2[C@H]2COCCN2c2ccn3ncc1c3n2,,,"Sprague-Dawley rat, female, kidneys","oral, 10 mg/kg/day, 4 weeks, end of treatment",,organ-to-body weight ratio,0.628 ± 0.05%
CC(C)(C)C(=O)OCOP(=O)(OCOC(=O)C(C)(C)C)C1CCCN(O)C1=O (stereo not drawn),ACHN,,,,,GI50,0.34 µM
Cc1cc(O)cc(C)c1C[C@H](N)C(=O)N[C@H](CCCNC(=N)N)C(=O)N[C@@H](Cc1ccccc1)C(=O)N(C)CC(=O)N(C)Cc1cc(C(F)(F)F)cc(C(F)(F)F)c1,"OPRD1 (Homo sapiens, UniProt P41143, E323K)",,,,,Ki,0.00619 ± 0.00056 µM
CSCC[C@H](NC(=O)[C@H](CCC(N)=O)NC(=O)[C@H](CCCCN)NC(=O)[C@H](CCCNC(=N)N)NC(=O)[C@H](Cc1ccc(O)cc1)NC(=O)[C@H](CCCNC(=N)N)NC(=O)[C@H](CO)NC(=O)[C@H](Cc1ccc(O)cc1)NC(=O)[C@H](CO)NC(=O)[C@H](CC(=O)O)NC(=O)[C@@H](NC(=O)[C@@H](N)Cc1ccccc1)[C@@H](C)O)C(=O)N[C@@H](C)C(=O)N[C@H](C(=O)N[C@@H](CCCCN)C(=O)N[C@@H](CCCCn1cc(C[C@H](NC(=O)CNC(=O)[C@H](CO)NC(=O)[C@H](CCCNC(=N)N)NC(=O)[C@H](CO)NC(=O)[C@H](CC(C)C)NC(=O)[C@H](CC(C)C)NC(=O)CNC(=O)[C@H](C)NC(=O)[C@H](CC(C)C)NC(=O)[C@H](CCCNC(=N)N)NC(=O)[C@H](Cc2c[nH]cn2)NC(=O)[C@@H](NC(=O)[C@@H](N)C(C)C)[C@@H](C)O)C(=O)N[C@H](C(=O)N[C@H](C(=O)N[C@@H](CCCCN)C(=O)N[C@@H](CC(N)=O)C(=O)N[C@@H](CC(N)=O)C(=O)N[C@@H](Cc2ccccc2)C(=O)N[C@H](C(=O)N2CCC[C@H]2C(=O)N[C@H](C(=O)N[C@@H](CC(N)=O)C(=O)N[C@H](C(=O)NCC(=O)N[C@@H](CO)C(=O)N[C@@H](CCCCN)C(=O)N[C@@H](C)C(=O)N[C@@H](Cc2ccccc2)C(N)=O)C(C)C)[C@@H](C)O)C(C)C)C(C)C)C(C)C)nn1)C(=O)N[C@@H](Cc1ccc(O)cc1)C(=O)N[C@@H](CC(C)C)C(=O)N[C@@H](C)C(=O)N[C@@H](C)C(=O)N[C@H](C(=O)N[C@@H](CC(C)C)C(=O)NCC(=O)N[C@@H](CCCCN)C(=O)N[C@@H](CCCNC(=N)N)C(=O)N[C@@H](Cc1ccc(O)cc1)C(=O)N[C@@H](CCCCN)C(=O)N[C@@H](CCC(N)=O)C(=O)N[C@@H](CCCNC(=N)N)C(=O)N[C@H](C(=O)N[C@@H](CCCCN)C(=O)N[C@@H](CC(N)=O)C(=O)N[C@@H](CCCCN)C(N)=O)C(C)C)C(C)C)C(C)C,ADCYAP1R1,"cAMP accumulation, antagonist",COS-7 transfected,together with: VIP,,Kb,0.0302 µM
C[C@H](NC(=O)[C@H](CCCCN)NC(=O)c1ccccc1N)C(=O)N[C@@H](CCCNC(=N)N)C(=O)N[C@@H](CO)C(=O)N[C@@H](CO)C(=O)N[C@@H](Cc1ccccc1)C(=O)N[C@@H](CCC(N)=O)C(=O)NCCNc1ccc([N+](=O)[O-])cc1[N+](=O)[O-],MCA2,substrate,,"pH 7.4, 25 °C, together with: 1 mM CaCl2",,Ki,3.7 µM
CC(C)C[C@H](NC(=O)[C@H](CCCCN)NC(=O)[C@H](CCCCN)NC(=O)Cc1cccc(CNC(=O)[C@@H](C)NC(=N)N)c1)B(O)O,"Genome polyprotein, NS2B-NS3 protease (ZIKV, UniProt A0A024B7W1)",inhibitor,Zika virus,,,Ki,0.008 ± 0.0002 µM
C[C@H](NC(=O)[C@H](CCCCN)NC(=O)c1ccccc1N)C(=O)N[C@@H](CCCNC(=N)N)C(=O)N[C@@H](CO)C(=O)N[C@@H](Cc1ccc(O)cc1)C(=O)N[C@@H](C)C(=O)N[C@@H](CCC(N)=O)C(=O)NCCNc1ccc([N+](=O)[O-])cc1[N+](=O)[O-],MCA2,"enzyme activity, competitive inhibitor",Trypanosoma brucei,together with: Z-FR-AMC substrate,,Ki,6.7 µM
CSCC[C@H](NC(=O)[C@H](CCC(N)=O)NC(=O)[C@H](CCCCN)NC(=O)[C@H](CCCNC(=N)N)NC(=O)[C@H](Cc1ccc(O)cc1)NC(=O)[C@H](CCCNC(=N)N)NC(=O)[C@H](CO)NC(=O)[C@H](Cc1ccc(O)cc1)NC(=O)[C@H](CO)NC(=O)[C@H](CC(=O)O)NC(=O)[C@@H](NC(=O)[C@@H](N)Cc1ccccc1)[C@@H](C)O)C(=O)N[C@@H](C)C(=O)N[C@H](C(=O)N[C@@H](CCCCN)C(=O)N[C@@H](CCCCN)C(=O)N[C@@H](Cc1ccc(O)cc1)C(=O)N[C@@H](CC(C)C)C(=O)N[C@@H](C)C(=O)N[C@@H](C)C(=O)N[C@H](C(=O)N[C@@H](CC(C)C)C(=O)NCC(=O)N[C@@H](CCCCN)C(=O)N[C@@H](CCCNC(=N)N)C(=O)N[C@@H](Cc1ccc(O)cc1)C(=O)N[C@@H](CCCCN)C(=O)N[C@@H](CCC(N)=O)C(=O)N[C@@H](CCCCn1cc(C[C@H](NC(=O)CNC(=O)[C@H](CO)NC(=O)[C@H](CCCNC(=N)N)NC(=O)[C@H](CO)NC(=O)[C@H](CC(C)C)NC(=O)[C@H](CC(C)C)NC(=O)CNC(=O)[C@H](C)NC(=O)[C@H](CC(C)C)NC(=O)[C@H](CCCNC(=N)N)NC(=O)[C@H](Cc2c[nH]cn2)NC(=O)[C@@H](NC(=O)[C@@H](N)C(C)C)[C@@H](C)O)C(=O)N[C@H](C(=O)N[C@H](C(=O)N[C@@H](CCCCN)C(=O)N[C@@H](CC(N)=O)C(=O)N[C@@H](CC(N)=O)C(=O)N[C@@H](Cc2ccccc2)C(=O)N[C@H](C(=O)N2CCC[C@H]2C(=O)N[C@H](C(=O)N[C@@H](CC(N)=O)C(=O)N[C@H](C(=O)NCC(=O)N[C@@H](CO)C(=O)N[C@@H](CCCCN)C(=O)N[C@@H](C)C(=O)N[C@@H](Cc2ccccc2)C(N)=O)C(C)C)[C@@H](C)O)C(C)C)C(C)C)C(C)C)nn1)C(=O)N[C@H](C(=O)N[C@@H](CCCCN)C(=O)N[C@@H](CC(N)=O)C(=O)N[C@@H](CCCCN)C(N)=O)C(C)C)C(C)C)C(C)C,ADCYAP1R1,"cAMP accumulation, antagonist",COS-7 transfected,"from pA2, single concentration, together with: PACAP-38",,Kb,6.31 µM
NC(=O)C[C@H]1NC(=O)[C@@H](CCC(=O)O)NC(=O)[C@H](CCC(=O)O)NC(=O)[C@@H]2CCCN2C(=O)[C@H](C(c2ccccc2)c2ccccc2)NC(=O)[C@@H]2CCCN2C(=O)[C@H]2CCCN2C(=O)[C@H](Cc2c[nH]cn2)NC1=O,blaNDM-1,"enzyme activity, inhibitor",,together with: nitrocefin 1.5 µM,,Ki,242 µM
CC[C@@H]1C(=O)N(C)c2cnc(Nc3ccc(C(=O)NCCCC[C@H](NC(=O)[C@@H](NC(=O)[C@H](CO)NC(=O)[C@H](Cc4cncn4CCCCCCCCc4ccccc4)NC(=O)[C@H](CC(C)C)NC(=O)[C@@H]4CCCN4C(C)=O)[C@@H](C)CP(=O)(O)O)C(N)=O)cc3OC)nc2N1C1CCCC1,Caco-2,,,"10 µM, 2 h",reference: B-A over A-B,efflux ratio,8.94
CN(C)[C@H](CNC(=O)/C=C/c1cccc2ccccc12)Cc1ccc(O)cc1,"NTSR1 (Homo sapiens, UniProt P30989)",,,,,Ki,> 50 µM
CC(C)[C@@H]1NC(=O)[C@@H]2CCCN2C(=O)[C@@H](CS)NC(=O)[C@H](CCCCN)NC(=O)[C@H](CCCCN)NC(=O)[C@H](CC(=O)O)NC(=O)[C@H]2CCCN2C(=O)[C@@H]2CCCN2C1=O,blaNDM-1,"enzyme activity, inhibitor",,together with: nitrocefin 1.5 µM,,Ki,22.3 µM
CC(=O)N[C@@H](CCCNC(=N)N)C(=O)N[C@H](C(=O)N[C@@H](CCCCN)C(=O)N[C@@H](CCCNC(=N)N)C(N)=O)C(C)C,"Proprotein convertase subtilisin/kexin type 7 (Homo sapiens, UniProt Q16549)","enzyme activity, inhibitor",,,,Ki,4.3 µM
NC(=O)[C@@H]1CCCCC[C@@H](NC(=O)[C@@H](N)Cc2ccc(O)cc2)C(=O)N[C@@H](Cc2ccccc2)C(=O)N[C@@H](Cc2ccccc2)C(=O)N1,"Oprm1 (Rattus norvegicus, UniProt P33535)","ligand displacement, radioligand",,cell membranes,,Ki,0.00104 µM
COc1ccccc1N1CCN(CCCCN2CCCc3ccccc3C2=O)CC1,"ADRA1B (Homo sapiens, UniProt P35368)","ligand displacement, radioligand",,,,Ki,0.125 µM

# Excerpt of the above:
Compound,tested on,test,system,conditions,scale,measurement,value
Cc1cc(O)cc(C)c1C[C@H](N)C(=O)N[C@H](CCCNC(=N)N)C(=O)N[C@@H](Cc1ccccc1)C(=O)N(C)CC(=O)N(C)Cc1cc(C(F)(F)F)cc(C(F)(F)F)c1,"OPRD1 (Homo sapiens, UniProt P41143, E323K)",,,,,Ki,0.00619 ± 0.00056 µM
CSCC[C@H](NC(=O)[C@H](CCC(N)=O)NC(=O)[C@H](CCCCN)NC(=O)[C@H](CCCNC(=N)N)NC(=O)[C@H](Cc1ccc(O)cc1)NC(=O)[C@H](CCCNC(=N)N)NC(=O)[C@H](CO)NC(=O)[C@H](Cc1ccc(O)cc1)NC(=O)[C@H](CO)NC(=O)[C@H](CC(=O)O)NC(=O)[C@@H](NC(=O)[C@@H](N)Cc1ccccc1)[C@@H](C)O)C(=O)N[C@@H](C)C(=O)N[C@H](C(=O)N[C@@H](CCCCN)C(=O)N[C@@H](CCCCn1cc(C[C@H](NC(=O)CNC(=O)[C@H](CO)NC(=O)[C@H](CCCNC(=N)N)NC(=O)[C@H](CO)NC(=O)[C@H](CC(C)C)NC(=O)[C@H](CC(C)C)NC(=O)CNC(=O)[C@H](C)NC(=O)[C@H](CC(C)C)NC(=O)[C@H](CCCNC(=N)N)NC(=O)[C@H](Cc2c[nH]cn2)NC(=O)[C@@H](NC(=O)[C@@H](N)C(C)C)[C@@H](C)O)C(=O)N[C@H](C(=O)N[C@H](C(=O)N[C@@H](CCCCN)C(=O)N[C@@H](CC(N)=O)C(=O)N[C@@H](CC(N)=O)C(=O)N[C@@H](Cc2ccccc2)C(=O)N[C@H](C(=O)N2CCC[C@H]2C(=O)N[C@H](C(=O)N[C@@H](CC(N)=O)C(=O)N[C@H](C(=O)NCC(=O)N[C@@H](CO)C(=O)N[C@@H](CCCCN)C(=O)N[C@@H](C)C(=O)N[C@@H](Cc2ccccc2)C(N)=O)C(C)C)[C@@H](C)O)C(C)C)C(C)C)C(C)C)nn1)C(=O)N[C@@H](Cc1ccc(O)cc1)C(=O)N[C@@H](CC(C)C)C(=O)N[C@@H](C)C(=O)N[C@@H](C)C(=O)N[C@H](C(=O)N[C@@H](CC(C)C)C(=O)NCC(=O)N[C@@H](CCCCN)C(=O)N[C@@H](CCCNC(=N)N)C(=O)N[C@@H](Cc1ccc(O)cc1)C(=O)N[C@@H](CCCCN)C(=O)N[C@@H](CCC(N)=O)C(=O)N[C@@H](CCCNC(=N)N)C(=O)N[C@H](C(=O)N[C@@H](CCCCN)C(=O)N[C@@H](CC(N)=O)C(=O)N[C@@H](CCCCN)C(N)=O)C(C)C)C(C)C)C(C)C,ADCYAP1R1,"cAMP accumulation, antagonist",COS-7 transfected,together with: VIP,,Kb,0.0302 µM
